Experimental data from different studies.
Lines come from different studies, so protocols differ. Values joined by “and” are separate records of one study, mostly repeats; a detail may differ.
Target: Rho-associated protein kinase 1 (ROCK1, Homo sapiens, UniProt Q13464)

Structure (SMILES) | test | conditions | how to read | measurement | value
COc1c(OCCCN2CCOCC2)ccc2c1N=C(NC(=O)c1cnc(N)nc1)N1CCN=C21 | kinase activity, inhibitor | 1 µM | reference: untreated control | remaining activity | 115%
C[C@H]1CN(C(=O)c2cn(-c3ccnc(N)n3)c3cc(C#CC4(O)CCCCC4)ccc23)CCN1 | enzyme activity, inhibitor, FRET | 1 µM |  | inhibition | 3%
COc1cc(Nc2nccc(-c3cnn4nc(OC)ccc34)n2)cc(C(F)(F)F)c1 | binding, competition with immobilised ligand | 1 µM |  | remaining binding | 100%
CNC(=O)C1CCN(c2cc(C)c(F)cc2NC(=O)c2ccc(-c3cc(O)ccc3C)c(C)c2)CC1 | binding, competition with immobilised ligand | 1 µM |  | remaining binding | 100%
COc1c(Cl)cccc1Nc1c(-c2ccncc2C#C[C@@]2(C)CCCN2C(=O)/C=C/CN(C)C)[nH]c2c1C(=O)NCC2 | binding, competition with immobilised ligand | 3 µM |  | remaining binding | 98%
Cc1cnc2nc1Nc1cccc(c1)COC/C=C/COCc1cc(ccc1OCCN1CCOCC1)N2 | binding, competition with immobilised ligand | 0.1 µM |  | remaining binding | 69%
CN1CCN(Cc2ccc(-c3ccc(CO[C@H]4CCC[C@@H]4NC(=O)c4cc(-c5cnn(C)c5)cnc4N)cc3)cc2)CC1 | enzyme activity, inhibitor | 0.1 µM |  | inhibition | 7%
C=CC(=O)N1Cc2nc(-c3cc(-c4cc(Cl)cnc4Cl)c(F)cc3F)n(-c3ccncn3)c2C1 | cell-free assay, inhibitor | 1 µM |  | inhibition | 6.9%
O=C(O)CCC(=O)c1cccc(NS(=O)(=O)c2c[nH]c3ncccc23)c1 | kinase activity, radiometric | 10 µM |  | remaining activity | 112%
C=CC(=O)N1CCc2ccc(-n3c(=O)ccc4cnc5ccc(-c6cnn(C)c6)cc5c43)cc21 | KINOMEscan | 1 µM | reference: DMSO control | remaining binding | 94%
NC(=O)[C@@H](O)C[C@H]1CCc2sc3ncnc(O[C@H]4CC[C@H](N5CCOCC5)CC4)c3c21 | enzyme activity, inhibitor | 10 µM |  | inhibition | 12%
COc1ccc(NC(=O)Nc2ccc3c(c2)C(=O)N(C(C)CO)CC(C)C(CN(C)Cc2ccc4c(c2)OCO4)O3)cc1 (stereo not shown) | kinase activity, KinaseProfiler | 0.03 µM, species human | reference: control | remaining activity | 109%
Cc1nc2c(F)cc(-c3nc(Nc4ccc(CNC(=O)CCCCCCC(=O)NO)cc4)ncc3F)cc2n1C(C)C | enzyme activity, inhibitor | 1 µM |  | inhibition | 73%
Cc1cccc(O[C@H]2CCC[C@@H](C(C)CNCc3ccncc3)C2)c1 (relative stereo) | enzyme activity, inhibitor | 1 µM |  | inhibition | 1%
Cc1c[nH]c2nccc(-c3ccc(C(=O)N[C@@H]4c5c(F)cc(C(F)F)cc5C[C@@H]4O)cn3)c12 | binding, competition with immobilised ligand | 3 µM |  | remaining binding | 0.4%
CCn1cc(C(=O)O)c(=O)c2c(N)c(F)c(NC3CCCCC3)cc21 | kinase activity | 0.1 µM, with: ATP at Km |  | inhibition | 1.5%
O=C=[N][Ru-4]123([n]4c5ccc(O)cc5c5c6c(c7cc(F)c[n+]1c7c54)C(=O)NC6=O)[S+]1CC[S+]2CC[S+]3CC1 (stereo not shown) | enzyme activity | 100 nM, human enzyme, with: 10 µM ATP | reference: untreated | remaining activity | 113%
C=CC(=O)Nc1cccc(-c2cnc3[nH]cc(C(=O)NC(C)(C)C)c3n2)c1 | kinase activity | 0.1 µM |  | inhibition | 32% and 30%
CC(C)=CC1OC(C)(C)C2C=C3C(=O)C(Cl)=CC(O)C3C3C(O)C4OC4C(=O)C132 (stereo not shown) | cell-free assay, competition with immobilised ligand | 10 µM |  | remaining binding | 96%
